Experimental data of several laboratories.
Compare with care: the assays were run in different laboratories.

| SMILES | tested on | assay | test system | conditions | scale | endpoint | value |
| --- | --- | --- | --- | --- | --- | --- | --- |
| O=C1Nc2cc3[nH]nc(-c4ccncc4)c3cc2CN1Cc1ccccc1 |  | CTCAE v4.03 | advanced solid tumour patients | intravenous, 9.6 mg/kg, schedules 1/2 |  | patients with dizziness | 0% |
| CN1CC[C@@H](c2c(O)cc(O)c3c(=O)cc(-c4ccc(C(F)(F)F)cc4Cl)oc23)[C@@H]1CO |  | refers to: Dizziness | B-cell malignancies | oral, 200 mg, intermittent dosing |  | patients with adverse event | 100% |
| CC(=O)c1c(C)c2cnc(Nc3ccc(C4CCN(CCS(C)(=O)=O)CC4)cn3)nc2n(C2CCCC2)c1=O |  |  | HR+/HER2- advanced breast cancer patients | oral, 100 mg twice daily, all grades,, monotherapy |  | patients with ALT increased | 6.7% |
| N[C@@H]1c2ccccc2OC12CCN(c1cnc3c(N4CCCc5ncccc54)n[nH]c3n1)CC2 |  |  | advanced solid tumour patients | oral, 60 mg once daily |  | patients with any TEAE | 100% |
| COc1ccccc1-c1cccc(CN2CCCC(C(=O)NCc3ccc(F)cc3)C2)c1 (stereo not shown) | Vero-E6 | CellTiter-Glo ATP |  | concentration not given, 72 h, first round 5-point | relative to: DMSO 0%, hyamine -100%, more negative, more toxic | cytotoxicity efficacy | -18.7% |
| CO[C@H]1C[C@@H]2CC[C@@H](C)[C@@](O)(O2)C(=O)C(=O)N2CCCC[C@H]2C(=O)O[C@H]([C@H](C)C[C@@H]2CC[C@@H](OC(=O)NCCOCCOCCOCCOCCOCCOCCOCCOCCC(=O)N3CCc4cc(Cn5nc(-c6ccc7oc(N)nc7c6)c6c(N)ncnc65)ccc4C3)[C@H](OC)C2)C[C@@H](O)[C@H](C)/C=C(\C)[C@@H](O)[C@@H](OC)C(=O)[C@H](C)C[C@H](C)/C=C/C=C/C=C/1C |  | refers to: grade ≥3 treatment-related mucositis | patients with advanced solid tumours | intravenous, 8 to 12 mg, DM plus TM, weekly |  | patients with AE | 6% |
| C=CCNc1c(O)cc2c(O)c1C[C@@H](C)C[C@H](OC)[C@H](O)[C@@H](C)/C=C(\C)[C@H](OC(N)=O)[C@@H](OC)/C=C\C=C(/C)C(=O)N2 |  | refers to: Arthralgia | unresectable or metastatic GIST/STS | intravenous, dose not given, all doses |  | patients with TEAE | 30% |
| CCN(CC)CCNC(=O)c1cc(-c2ccc(Br)s2)nc2ccccc12 | Vero-E6 | CellTiter-Glo ATP |  | 72 h, retest 8-point duplicates | relative to: DMSO 0%, hyamine -100%, more negative, more toxic | maximum response | -73.1% |
| Cc1cc(OCCOCCC(F)(F)P(=O)(O)O)ccc1CCc1cnc2c(N)nc3cc(CCC(=O)O)ccc3c2c1 |  | refers to: pyrexia | adults with advanced solid tumours | dose not given, by treatment group, all grades |  | patients with non-serious AE | 28.6% |
| CCN(CCO)CCCC(C)Nc1ccnc2cc(Cl)ccc12 (stereo not shown) |  | refers to: Bicarbonate grade 1 | newly diagnosed glioblastoma patients | oral, 800 mg/dose, with radiotherapy and temozolomide |  | patients with adverse event | 33% |

For quick reference, copied from above:
| SMILES | tested on | assay | test system | conditions | scale | endpoint | value |
| --- | --- | --- | --- | --- | --- | --- | --- |
| CCN(CCO)CCCC(C)Nc1ccnc2cc(Cl)ccc12 (stereo not shown) |  | refers to: Bicarbonate grade 1 | newly diagnosed glioblastoma patients | oral, 800 mg/dose, with radiotherapy and temozolomide |  | patients with adverse event | 33% |
